Measured values collected from several papers.
Numbered parts are unrelated; each lists some results of a single study. Positions count from the first letter of the parent shown.

Set 1 — technique: protein-binding microarray; form: hairpin DNA; sample: in vitro; tested at: not given; reference: not given; direction: higher = stronger binding; measurement: median fluorescence
Target: Cyclic AMP-dependent transcription factor ATF-1, full length (ATF1, Homo sapiens, UniProt P18846, residues 1-271)
Notes: whole hairpin DNA, median over replicate spots
Residues (chain): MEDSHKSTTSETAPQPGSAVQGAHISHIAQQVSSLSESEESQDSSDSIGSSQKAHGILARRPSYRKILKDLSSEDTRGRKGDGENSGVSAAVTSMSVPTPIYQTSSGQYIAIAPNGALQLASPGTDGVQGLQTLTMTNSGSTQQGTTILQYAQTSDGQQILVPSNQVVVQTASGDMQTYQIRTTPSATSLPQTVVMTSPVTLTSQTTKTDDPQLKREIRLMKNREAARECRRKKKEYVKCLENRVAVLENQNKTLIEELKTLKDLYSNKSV
Strand = GAGGCCCGCTGACGTCAGCCTCCTGGCTGACGTCAGCGGGCCTCACACTC (5mC at 37); value = 11500 a.u.
Strand = GAGGCCGTCGACGTCGTGCCTCCTGGCACGACGTCGACGGCCTCACACTC (5mC at 9 15 29 35); value = 4160 a.u.
Strand = GAGGCCGGCTCGCGTCAGCCTCCTGGCTGACGCGAGCCGGCCTCACACTC (5mC at 11 33); value = 5390 a.u.
Strand = GAGGCCGGATGCGGTCAGCCTCCTGGCTGACCGCATCCGGCCTCACACTC; value = 3490 a.u.
Strand = GAGGCCGACGACGTAGTGCCTCCTGGCACTACGTCGTCGGCCTCACACTC (5mC at 9 29 35); value = 6120 a.u.
Strand = GAGGCCGGAGGACGTCAGCCTCCTGGCTGACGTCCTCCGGCCTCACACTC (5mC at 35); value = 4520 a.u.
Strand = GAGGCCGGATGACGTCGGCCTCCTGGCCGACGTCATCCGGCCTCACACTC (5mC at 16 28); value = 10200 a.u.
Strand = GAGGCCGACCACGTCGTGCCTCCTGGCACGACGTGGTCGGCCTCACACTC (5mC at 9 10 15 29); value = 4490 a.u.

Set 2 — effect on: peptide-MHC binding; form: peptide; tested at: concentration not given; measurement: binding
Target: HLA class I histocompatibility antigen, A alpha chain, allele A*80:01 (Homo sapiens, UniProt P04439)
Molecule = GIVSSMHYK; value = inactive
Molecule = FHSRFVQAL; value = inactive
Molecule = FTFDLTALK; value = inactive
Molecule = GSEEIKSLY; value = inactive
Molecule = QCFSVVLRY; value = active
Molecule = LSDLCNFLV; value = inactive
Molecule = HSEEGSRAY; value = inactive
Molecule = EHVQGDIDL; value = inactive
Molecule = WFQRIPLQW; value = inactive

Set 3 — target: UBE2W UBC core domain (UniProt Q96B02); technique: yeast two-hybrid; sample: yeast; notes: mostly zero background; reference: not given; direction: higher = stronger interaction; measurement: lacZ reporter activity
B1: PHF21A RING domain (UniProt Q96BD5); chain SPTSTDGDIHEDFCSVCRKSGQLLMCDTCSRVYHLDCLDPPLKTIPKGMWICPRCQDQMLKKEEAIPW
B2: CUL9 RING domain (UniProt Q8IWT3); chain AQAVPVRPDHCPVCVSPLGCDDDLPSLCCMHYCCKSCWNEYLTTRIEQNLVLNCTCPIADCPAQPTGAFIR
B3: TRIM63 RING domain (UniProt Q969Q1); chain PMENLEKQLICPICLEMFTKPVVILPCQHNLCRKCANDIFQAANPYWTSRGSSVSMSGGRFRCPTCRHEVIMDRHGV
B4: ARK2C RING domain (UniProt Q6ZSG1); chain EGEESDTDEKCTICLSMLEDGEDVRRLPCMHLFHQLCVDQWLAMSKKCPICRVDIETQLGAD
Construct (chain): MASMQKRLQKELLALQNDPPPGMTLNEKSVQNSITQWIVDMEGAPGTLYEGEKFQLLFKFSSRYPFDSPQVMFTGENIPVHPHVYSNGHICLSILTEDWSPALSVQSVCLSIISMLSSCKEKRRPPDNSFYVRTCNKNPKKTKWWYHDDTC
Molecule = B1 (PHF21A RING domain); value = 0
Molecule = QHHELTSLFECPVCFDYVLPPILQCQAGHLVCNQCRQKLSCCPTCRGALTPSIRNL (SIAH2 RING domain (UniProt O43255)); value = 0
Molecule = B2 (CUL9 RING domain); value = 0
Molecule = QLRRLQEERTCKVCMDKEVSVVFIPCGHLVVCQECAPSLRKCPICRGIIKGTVRTF (BIRC2 RING domain (UniProt Q13490)); value = 6730
Molecule = B3 (TRIM63 RING domain); value = 0
Molecule = VTLSLTLPITCHICLGKVRQPVICINNHVFCSICIDLWLKNNSQCPACRVPITPENPCK (OBI1 RING domain (UniProt Q5W0B1)); value = 0
Molecule = DAIPSLSECQCGICMEILVEPVTLPCNHTLCKPCFQSTVEKASLCCPFCRRRVSSWTRYH (RNF168 RING domain (UniProt Q8IYW5)); value = 0
Molecule = QLRRLQEERTCKVCMDKEVSIVFIPCGHLVVCKDCAPSLRKCPICRSTIKGTVRTF (BIRC3 RING domain (UniProt Q13489)); value = 9550
Molecule = EDEVSDNSAECVVCLSDVRDTLILPCRHLCLCNTCADTLRYQANNCPICRLPFRALLQIR (RNF157 RING domain (UniProt Q96PX1)); value = 0
Molecule = B4 (ARK2C RING domain); value = 11200
Molecule = PEELQAMDNVCIICREEMVTGAKRLPCNHIFHTSCLRSWFQRQQTCPTCRMDVLRASLPA (SYVN1 RING domain (UniProt Q86TM6)); value = 0
Molecule = YWAMDSTFELCKICAESNKDVKIEPCGHLLCSCCLAAWQHSDSQTCPFCRCEIKGWEAVS (CBLC RING domain (UniProt Q9ULV8)); value = 0
Molecule = FPEHFVKSISCQICEHILADPVETNCKHVFCRVCILRCLKVMGSYCPSCRYPCFPTDLES (RAG1 RING domain (UniProt P15918)); value = 0

Set 4 — target: CCNB1, cyclin fold, Cln2 fusion (human); technique: yeast growth competition, sequencing; sample: yeast; notes: strong parent motif; reference: not given; direction: higher = stronger binding; measurement: normalised enrichment score; parent: viral docking peptide; KGVKRKLFAEDSS
Substitution = KGVKRKLAAEDSS [F8A]; value = 0.706
Substitution = KGVKRKLNAEDSS [F8N]; value = 0.097
Substitution = KPVKRKLFAEDSS [G2P]; value = 3.24
Substitution = KGVKTKLFAEDSS [R5T]; value = 0.812
Substitution = KGVKRKLFDEDSS [A9D]; value = 3.29
Substitution = KGVKRKLFAEDPS [S12P]; value = 2.8
Substitution = KGVKRKLFIEDSS [A9I]; value = 2.05
Substitution = KGVKRKFFAEDSS [L7F]; value = 0.447
Substitution = KGVDRKLFAEDSS [K4D]; value = 0.443
Substitution = KGVCRKLFAEDSS [K4C]; value = 4.42
Substitution = KTVKRKLFAEDSS [G2T]; value = 1.97
Substitution = KGVWRKLFAEDSS [K4W]; value = 0.121
Substitution = KGVKRKLFLEDSS [A9L]; value = 2.09
Substitution = KGVKRKLFAPDSS [E10P]; value = 0.858
Substitution = KGVKRKLFAQDSS [E10Q]; value = 0.817
Substitution = KGVKRKLLAEDSS [F8L]; value = -0.0108
Substitution = KSVKRKLFAEDSS [G2S]; value = 2.7

A few entries again (set 3):
Molecule = QLRRLQEERTCKVCMDKEVSVVFIPCGHLVVCQECAPSLRKCPICRGIIKGTVRTF (BIRC2 RING domain (UniProt Q13490)); value = 6730
Molecule = FPEHFVKSISCQICEHILADPVETNCKHVFCRVCILRCLKVMGSYCPSCRYPCFPTDLES (RAG1 RING domain (UniProt P15918)); value = 0
Molecule = YWAMDSTFELCKICAESNKDVKIEPCGHLLCSCCLAAWQHSDSQTCPFCRCEIKGWEAVS (CBLC RING domain (UniProt Q9ULV8)); value = 0
Molecule = QHHELTSLFECPVCFDYVLPPILQCQAGHLVCNQCRQKLSCCPTCRGALTPSIRNL (SIAH2 RING domain (UniProt O43255)); value = 0
Molecule = B1 (PHF21A RING domain); value = 0
Molecule = DAIPSLSECQCGICMEILVEPVTLPCNHTLCKPCFQSTVEKASLCCPFCRRRVSSWTRYH (RNF168 RING domain (UniProt Q8IYW5)); value = 0
